Published values collected from several papers.
Protocols differ between the studies behind these lines.
Target: Voltage-gated inwardly rectifying potassium channel KCNH2 (KCNH2, Homo sapiens, UniProt Q12809)
Sequence of UniProt Q12809 (whole entry, looked up): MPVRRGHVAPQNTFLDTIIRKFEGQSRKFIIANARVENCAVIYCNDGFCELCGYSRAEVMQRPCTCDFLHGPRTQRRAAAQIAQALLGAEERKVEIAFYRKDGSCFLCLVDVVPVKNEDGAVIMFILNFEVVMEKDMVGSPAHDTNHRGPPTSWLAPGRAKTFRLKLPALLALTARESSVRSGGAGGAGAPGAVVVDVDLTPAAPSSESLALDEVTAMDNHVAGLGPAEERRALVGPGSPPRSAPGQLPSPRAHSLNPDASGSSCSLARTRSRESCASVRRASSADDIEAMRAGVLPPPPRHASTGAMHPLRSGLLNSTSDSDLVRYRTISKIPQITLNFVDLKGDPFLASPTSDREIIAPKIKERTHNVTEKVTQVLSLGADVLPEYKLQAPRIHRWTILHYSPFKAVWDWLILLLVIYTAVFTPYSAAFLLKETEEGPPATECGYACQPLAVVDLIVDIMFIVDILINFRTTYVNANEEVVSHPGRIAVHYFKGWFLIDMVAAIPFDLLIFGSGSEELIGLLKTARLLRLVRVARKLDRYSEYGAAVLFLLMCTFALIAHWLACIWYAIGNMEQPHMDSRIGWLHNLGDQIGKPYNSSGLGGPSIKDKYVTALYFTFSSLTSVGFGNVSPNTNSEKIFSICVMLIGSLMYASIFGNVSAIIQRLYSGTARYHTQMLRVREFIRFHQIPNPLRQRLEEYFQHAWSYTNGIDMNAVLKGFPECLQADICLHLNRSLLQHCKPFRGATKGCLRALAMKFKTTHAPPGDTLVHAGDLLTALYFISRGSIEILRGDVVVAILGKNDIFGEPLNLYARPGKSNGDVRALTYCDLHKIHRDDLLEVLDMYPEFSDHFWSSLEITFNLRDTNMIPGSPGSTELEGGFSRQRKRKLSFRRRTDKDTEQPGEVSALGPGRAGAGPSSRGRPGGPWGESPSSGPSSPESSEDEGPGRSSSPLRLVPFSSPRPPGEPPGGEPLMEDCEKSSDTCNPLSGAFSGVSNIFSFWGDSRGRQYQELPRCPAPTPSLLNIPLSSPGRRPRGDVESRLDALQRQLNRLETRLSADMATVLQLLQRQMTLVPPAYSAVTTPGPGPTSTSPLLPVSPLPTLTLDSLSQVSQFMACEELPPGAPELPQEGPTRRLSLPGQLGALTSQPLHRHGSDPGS

SMILES = C[C@H]1CN(C(=O)c2cn(-c3ccnc(N)n3)c3cc(C#CC4(O)CCCCC4)ccc23)CCN1; IC50 = 30.7 µM
SMILES = CN1CCCN(c2cnc3c(cc(C(=O)NCc4ccc(Cl)cc4)c(=O)n3CC(=O)N3CC(C)(F)C3)n2)C1=O; test = ion current, inhibitor, patch clamp; IC50 = 9.88 µM
SMILES = COc1cccc2c1C(=O)c1c(O)c3c(c(O)c1C2=O)C[C@@](O)(C(=O)CO)C[C@@H]3O[C@H]1C[C@H](N)[C@H](O)[C@H](C)O1; IC50 = 1 µM
SMILES = O=C(c1ccc(-c2cccc(C(F)(F)F)c2)cc1)N1CCN(c2ncccn2)CC1; test = ion current, automated patch clamp; IC50 = 14 µM
SMILES = OCC1OC(n2cnc3c(NCc4ccc(Br)s4)ncnc32)C(O)C1O (stereo not drawn); test = ion current, inhibitor, patch clamp; IC50 = 154 µM
SMILES = CC(=O)N(C)CCN1CCN(c2cnc3c(cc(C(=O)NCc4ccc(Cl)cc4)c(=O)n3CC(=O)N3CC(C)(F)C3)n2)C1=O; test = ion current, inhibitor, patch clamp; IC50 = 13.1 µM
SMILES = Cn1ccc([C@H](CCO)Nc2nc(N3CCOCC3)c3cc(-c4ccccc4)sc3n2)n1; test = ion current, inhibitor; IC50 = 19 µM
SMILES = CCC1(CC)CC(=O)N(C2CCOc3ccc(C(=O)NC4CC(C)(C)Oc5ccccc54)cc32)C(=N)N1 (stereo not drawn); test = ion current, inhibitor, patch clamp; test system = CHO; conditions = pH 7.3; IC50 = 0.63 µM
SMILES = CC1(F)CN(C(=O)Cn2c(=O)c(C(=O)NCc3ccc(Cl)cc3)cc3nc(N4CCN(CCN)C4=O)cnc32)C1; test = ion current, inhibitor, patch clamp; IC50 = > 40 µM

A few entries again:
SMILES = Cn1ccc([C@H](CCO)Nc2nc(N3CCOCC3)c3cc(-c4ccccc4)sc3n2)n1; test = ion current, inhibitor; IC50 = 19 µM
